Measured values of several laboratories.
A part holds a random share of what one study measured.

Block 1
Target: Interferon regulatory factor 7, full length, phosphomimetic (IRF7, Homo sapiens, UniProt Q92985, residues 1-503, S471D/S472D/S475D/S476D/S477D/S483D/S484D/S487D)
Chain of UniProt Q92985 (whole entry, unmodified, looked up): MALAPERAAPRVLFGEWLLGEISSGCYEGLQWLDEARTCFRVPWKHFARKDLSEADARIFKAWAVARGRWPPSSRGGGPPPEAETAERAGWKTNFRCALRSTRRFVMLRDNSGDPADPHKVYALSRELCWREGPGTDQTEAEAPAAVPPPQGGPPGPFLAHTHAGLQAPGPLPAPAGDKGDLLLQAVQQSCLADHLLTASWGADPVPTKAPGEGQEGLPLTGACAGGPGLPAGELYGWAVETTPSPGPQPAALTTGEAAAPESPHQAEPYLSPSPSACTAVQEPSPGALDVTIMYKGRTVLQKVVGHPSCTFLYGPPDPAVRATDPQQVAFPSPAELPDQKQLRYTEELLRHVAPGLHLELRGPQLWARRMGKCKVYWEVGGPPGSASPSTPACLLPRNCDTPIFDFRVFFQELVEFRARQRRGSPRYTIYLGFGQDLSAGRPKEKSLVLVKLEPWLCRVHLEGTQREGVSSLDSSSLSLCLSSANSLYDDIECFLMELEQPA
Method: protein-binding microarray
Molecule type: double-stranded DNA, one strand shown
Sample: in vitro
Concentration: 2200 nM top
Setting: 60-bp whole probe
With: salmon DNA 0.4 mg/ml
Baseline: random background probes
Reading: higher = stronger binding
Measurement: fitted relative affinity
Constant ends, left off below: GCCTAGCAC … GTGCTAGGTCTTGATTCGCTTGACGCTGCTG
Strand = ATAGGTCTCGGTCTCGGTTA; value = 1.07 z-score
Strand = TTAGGTATCCTTATCGTTTA; value = 0.878 z-score
Strand = GAAGTTCTAAATATCTTTGT; value = -0.676 z-score
Strand = TTAGGTCTCCTACTGCTTTA; value = 0.502 z-score
Strand = CCCTGAGTCCCTTGGGCCTT; value = -0.844 z-score
Strand = GCTAGTTCAGTTCTCTAGAA; value = 0.448 z-score
Strand = TTAGATCTCAGACTGCATTA; value = -0.156 z-score

Block 2
Target: Histone acetyltransferase KAT6A, winged helix 2, GST fusion (KAT6A, Homo sapiens, UniProt Q92794, residues 85-181)
Method: protein binding microarray
Molecule type: double-stranded DNA, one strand shown
Sample: in vitro
Concentration: not given
Setting: 8-mer, flanks averaged, mean of 2 arrays, mostly near background
Baseline: not given
Reading: higher = stronger binding
Measurement: E-score
Target sequence (chain): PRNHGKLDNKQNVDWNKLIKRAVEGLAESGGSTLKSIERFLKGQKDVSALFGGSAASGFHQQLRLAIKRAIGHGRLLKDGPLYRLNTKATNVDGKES
Strand = CTTATCGA; value = 0.00718
Strand = CCTGCTAG; value = -0.082
Strand = GACCGCTA; value = 0.088
Strand = AAAGTCAT; value = -0.141
Strand = CACTAGCA; value = -0.0393
Strand = CATCACGC; value = -0.107
Strand = ACGCATTC; value = -0.0868

Block 3
Target: Fragile X messenger ribonucleoprotein 1, C-terminal low-complexity region (Fmr1, Mus musculus, UniProt P35922)
Method: RNA Bind-n-Seq
Molecule type: RNA
Sample: in vitro
Concentration: 200 nM
Setting: whole 134-nt RNA, ends assumed
With: 150 mM KCl
Baseline: input library
Reading: higher = stronger binding
Measurement: log2 enrichment
Constant ends, left off below: GGGAGUUCUACAGUCCGACGAUC … UGGAAUUCUCGGGUGUCAAGG
Strand = CUGUGCUACACAUCGUAUGUACCGAAUCGGAAAAAAAGGGAAAAAAAGGGGAAAAAAAGGGAAAGUAUUAUGUUACGCCGUUCGGAUCUG; value = -0.878
Strand = UCCUGUGCUACACAUCGUAUGUACCGAAUCGGCCCCCCGGGCCCCCCGGCCCCCCGGGGAAAGUAUUAUGUUACGCCGUUCGGAUCUGCA; value = -0.139
Strand = UGGCCCUGGUGGCAUGCGGGGAGGAAGAGGUGGCCUCAUGGAUCGUGGUGGUCCCGGUGGAAUGUUCAGAGGUGGCCGUGGUGGAGACUG; value = -0.173
Strand = CCUGUGCUACACAUCGUAUGUACCGAAUCGGGUUUUUUUGGUUUUUUUGGGUUUUUUUGGGAAAGUAUUAUGUUACGCCGUUCGGAUCUG; value = -0.874
Strand = UCAACAAGAGAUGUUCAAGAACUUUUGACACAAUAUACCAAGUUUGCACAGAUGGUAAAAAAGAUGGGAGGUAUCAAAGGACUUUUCAAA; value = 0.162

Further values, each from its own experiment
Substance = PhoQ, residues 284 288 289 292 302 303 SLANKL; target = PhoP, residues 12 14 15 18 19 HLGGL (Escherichia coli, UniProt P23836); assay = Sort-seq, refers to: YFP reporter; test system = E. coli; setting = PhoQ-PhoP variant library, with: 10 µM Mg2+; scale = baseline: high Mg2+ state, higher = stronger signaling; measurement = fold induction; value = 18.6

Some of these lines once more (block 2):
Strand = CCTGCTAG; value = -0.082
